Measured values gathered from unrelated publications.
Parts stem from different laboratories: compare values within a part only.

Block 1 — technique: aptamer microarray, sandwich; form: DNA with 2'F-ANA; medium: in vitro; concentration: 200 nM; together with: Cy3 exosite-II aptamer, 400 nM; reading: higher = stronger binding
Target: Prothrombin, mature alpha-thrombin (F2, Homo sapiens, UniProt P00734)
Notes: whole 15-mer aptamer, many near background
Oligonucleotide	mean fluorescence intensity [a.u.]
GGTTGGTGTGGTTGG (2'F-ANA at 2 3 5 7 9 10 11 13 14 15)	246
GGTTGGTGTGGTTGG (2'F-ANA at 2 4 7 10 13)	83.6
GGTTGGTGTGGTTGG (2'F-ANA at 2 3 7 8 11 12 15)	1090
GGTTGGTGTGGTTGG (2'F-ANA at 1 2 3 7 8 9 10 11)	77.7

Block 2 — technique: protein binding microarray; form: double-stranded DNA, one strand shown; medium: in vitro; concentration: not given; reference: not given; reading: higher = stronger binding
Target: Histone acetyltransferase KAT6A, both winged helices, GST fusion (KAT6A, Homo sapiens, UniProt Q92794, residues 1-181)
Notes: 8-mer, flanks averaged, mean of 2 arrays, mostly near background
Residues (chain): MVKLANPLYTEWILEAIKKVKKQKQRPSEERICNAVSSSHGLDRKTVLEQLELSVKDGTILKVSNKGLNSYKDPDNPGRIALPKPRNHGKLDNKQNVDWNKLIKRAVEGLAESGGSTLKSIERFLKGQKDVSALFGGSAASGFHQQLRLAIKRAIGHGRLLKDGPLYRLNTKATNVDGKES
Oligonucleotide	E-score
GTTACAAC	0.0589
GTCAAGCA	-0.0844
GCCCCTCA	-0.0991
ATCCTGAC	-0.126
ACGAGCAT	-0.175

Block 3 — technique: universal PBM; form: double-stranded DNA, one strand shown; medium: in vitro; concentration: 600 nM; reading: higher = stronger binding
Target: Sal-like protein 4, full length isoform A (SALL4, Homo sapiens, UniProt Q9UJQ4, residues 1-1053)
Sequence of UniProt Q9UJQ4 (whole entry, looked up): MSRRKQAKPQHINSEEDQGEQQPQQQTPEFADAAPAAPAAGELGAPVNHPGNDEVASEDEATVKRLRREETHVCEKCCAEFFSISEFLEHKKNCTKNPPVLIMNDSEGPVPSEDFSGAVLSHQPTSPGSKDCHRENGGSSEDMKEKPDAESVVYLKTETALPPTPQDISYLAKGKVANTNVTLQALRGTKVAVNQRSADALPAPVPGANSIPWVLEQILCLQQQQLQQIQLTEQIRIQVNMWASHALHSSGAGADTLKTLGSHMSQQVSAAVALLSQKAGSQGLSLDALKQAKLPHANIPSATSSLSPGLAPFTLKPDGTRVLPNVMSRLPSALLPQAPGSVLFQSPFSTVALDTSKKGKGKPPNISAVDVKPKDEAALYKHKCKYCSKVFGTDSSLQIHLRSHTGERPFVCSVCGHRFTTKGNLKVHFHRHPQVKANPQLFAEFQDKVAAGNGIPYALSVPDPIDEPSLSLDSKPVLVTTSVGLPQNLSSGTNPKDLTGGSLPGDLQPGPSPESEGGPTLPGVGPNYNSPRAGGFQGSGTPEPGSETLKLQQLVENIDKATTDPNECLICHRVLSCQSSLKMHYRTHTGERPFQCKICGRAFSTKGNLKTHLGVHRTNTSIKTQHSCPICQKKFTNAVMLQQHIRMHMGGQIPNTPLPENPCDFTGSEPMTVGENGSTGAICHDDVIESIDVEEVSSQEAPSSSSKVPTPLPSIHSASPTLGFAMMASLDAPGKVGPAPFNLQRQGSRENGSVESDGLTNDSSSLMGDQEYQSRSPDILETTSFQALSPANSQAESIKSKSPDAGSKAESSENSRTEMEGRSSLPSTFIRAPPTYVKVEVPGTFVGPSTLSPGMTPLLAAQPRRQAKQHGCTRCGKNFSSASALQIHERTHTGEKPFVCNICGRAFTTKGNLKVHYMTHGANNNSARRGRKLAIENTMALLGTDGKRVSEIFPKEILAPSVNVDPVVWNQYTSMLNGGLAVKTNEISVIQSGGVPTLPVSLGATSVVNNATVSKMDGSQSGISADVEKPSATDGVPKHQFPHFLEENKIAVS
Notes: 8-mer, flanks averaged, mean of replicates
Oligonucleotide	E-score
AAGAGTAA	0.218
AGGCACCT	-0.324
CCGACTTA	0.0932
GTTGCTCA	0.0238

Other studies, line by line
Molecule	target	test	test system	conditions	scale	quantity	value
PhoQ, residues 284 288 289 292 302 303 NLGVHL	PhoP, residues 12 14 15 18 19 AGCRL (Escherichia coli, UniProt P23836)	Sort-seq, measured: YFP reporter	E. coli	PhoQ-PhoP variant library, together with: 10 µM Mg2+	reference: high Mg2+ state, higher = stronger signaling	fold induction	0.937

Some of these lines once more (block 3):
Oligonucleotide	E-score
AAGAGTAA	0.218
CCGACTTA	0.0932
